Measured values pooled from the literature.
Every numbered part comes from another study and shows a few of its results, in no order. Changes are numbered by the printed parent chain.

Block 1 — method: RNA Bind-n-Seq; molecule type: RNA; medium: in vitro; tested at: 365 nM; baseline: no-protein control; reading: higher = stronger binding; endpoint: RBNS enrichment (R)
Target: RNA binding protein fox-1 homolog 2, RRM domain, GST-SBP tag (RBFOX2, Homo sapiens, UniProt O43251-10, residues 100-194)
Setting: natural RNA segment, single round, ends assumed
Shared flanks, not repeated: GGGAGUUCUACAGUCCGACGAUC … UGGAAUUCUCGGGUGCCAA
Residues (chain): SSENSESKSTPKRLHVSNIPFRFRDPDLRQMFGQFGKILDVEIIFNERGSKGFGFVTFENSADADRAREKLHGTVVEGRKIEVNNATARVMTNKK
UUUUUAAGAGAAGCAAAAACAAAAGUAAACUCCUUUCCCUGGCCCUCCAAACAUAUAUUCUGUGAGAUAACUGUGCCUGCUACCAAGUGUUAAUCCUGGGAUCGUAUUUU: 4.06
UCAGGAGUGUCCUAUGUGAGAAUUGAGCCAAGGAAAAUACUCAUGCAACCAGCCUGAGUCGCGGUGAGGGGACGAGAGGUUGUACACACAUUGGUAGUUAUUUUGCACCA: 0.902
GGGGUUUUUUCCCUACUCAAGCAUUCGGAGACACUUUCUGUAAAUGUUAACCUUUAUGUCAGCCAUCGUCAGUUUCAACAUCUAGACCUAAAUAGAAAGUUAGCUGUUCC: 0.311
CUGAUUUCCUCAAAACGAAGUGGAAUUUACUACUGUUGUCAGUAUCGGUGUUUUGAAUUGGUGCCUGCCUAUAGAGAUAUAUUCACAGUUCAAAAGUCAGGUGCUGAGAG: 0.875
GAGAUUCCUAAUCACUAGUUUCUUGUAUUCAUAAACUCAGAGAUACAGAGGGCUUGGUUUGAAGUUGGGGUGAGAUGAAACCUUUGCUCUGAGCCAAAGCUCUGGGGCCU: 0.359
ACAUGCUUAUUGAAUGUAUAGCCGUGUUUGCUGAGUAACCUGUCCCACCGUUGAGGCUAUCUGAAGUGUAUUGUAUGAAGGAAGUAUCAAGAACAAAUCAUUGGCCCGUU: 4.42
AGUAAUGCCAUUGCCGCCGUCAAGCAGUCACAGGUCACUGAAGAGGAGGCAGCUGCUGCUCAGACGGAGGGGCCUUCAACACCAUCUAGUUUUCCAGCCCAGGAAGAACA: 0.282
UUUUGAUCUCUUUGGGGAAUCUGGAGUACAGGCCUCUCCGCCCCUGACCACCGAAACGUGCAGGCAUUCUCACUCACACUGGGCAGCCCGCUGUCGGGUCUCUCUAGGCC: 0.244
AGCUUAGAUACCAUGUAGUGGUCUGUGGCUACAGGAAGCUGGUUCUGUCUGCUUCCACAGUCUGCUUAAAAAACUGUCUGACUUCGUGAAUAUAGAGACCAAGUUUACCA: 0.315
GAGAGAGACAAAAGUGUUUGUUUGUUUUGUUUCCAGGAGCUUGUCAAAUAAACCAAUGAAAAAGCUUUGCCGAUGAUAAUAAAAGAUGCUCACACUUUCAUAGCGCUUGC: 0.659
CAGGACAGAGGUAGUGGCGGCCCCCAUGCCGCCCUCCUUGAGCUGGUGAGGAGAAGUCGCCAUUGAGCACACAACCUCCACCAGACUGCCAUGGCCCCGAACCUGCAAUU: 0.258
AUAAAACAUUCUGUUUAAGUGUUUUUCUUACGUUUUUCUCAAUGAGUUAAUCAACAAGUAUUUAUUAUGUGCUGAUAUCUUUGUUUUAGAUGCUUUAAAGGAGACAGGAA: 0.338

Block 2 — method: DHFR PCA, deep sequencing; medium: yeast; added: (+)-ABA 0.11 µM; baseline: wild-type fitted maximum; reading: higher = stronger binding; endpoint: relative binding score
Target: ABI1, truncated, D143A, DHFR fusion (Arabidopsis thaliana)
Setting: methotrexate growth selection, single substitutions
Parent: PYL1, truncated, DHFR fusion (Arabidopsis thaliana); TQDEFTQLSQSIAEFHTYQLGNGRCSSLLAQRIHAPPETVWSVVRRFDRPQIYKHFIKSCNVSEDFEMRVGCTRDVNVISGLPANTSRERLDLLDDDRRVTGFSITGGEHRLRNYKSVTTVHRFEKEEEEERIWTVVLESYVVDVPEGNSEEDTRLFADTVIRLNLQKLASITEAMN
F5C: 14.4%
L169R: 3.87%
H16D: 0.76%
E89K: -1.47%
V70L: -1.73%
V142M: 4.86%
Q31H: 5.94%
L156M: 30.8%
P83E: 13.3%
T6S: 42.6%
V70Q: -0.927%
A158F: 6.84%
D95P: -7.27%
P83T: 20.3%
E125Y: 24.7%
I52W: 10%
V137A: -1.07%
F157E: 8.16%
N22F: 21%
V161Q: 37.7%
A158W: 7.2%
I172L: 20.6%

Block 3 — target: CCND2, cyclin fold, Cln2 fusion (human); method: yeast growth competition, sequencing; medium: yeast; setting: strong parent motif; baseline: not given; reading: higher = stronger binding; endpoint: normalised enrichment score
Parent: INSM1 docking peptide (human); PKAIRKLHFEDEV
PFAIRKLHFEDEV [K2F]: 1.14
PKAIRELHFEDEV [K6E]: 1.24
PKAIYKLHFEDEV [R5Y]: 1.18
PKAIRSLHFEDEV [K6S]: 0.647
PKATRKLHFEDEV [I4T]: 0.761
PKAIRKHHFEDEV [L7H]: -0.223
PKAIRKLHFEDPV [E12P]: 2.42
PKNIRKLHFEDEV [A3N]: 0.0592
PKAIRKLHFSDEV [E10S]: 1.79
PKAIRGLHFEDEV [K6G]: 0.376
PIAIRKLHFEDEV [K2I]: 1.15
PKGIRKLHFEDEV [A3G]: 0.68
PKAIRKLHFGDEV [E10G]: 2.53
PKADRKLHFEDEV [I4D]: -0.011

Block 4 — method: protein-binding microarray; molecule type: double-stranded DNA, one strand shown; medium: in vitro; tested at: 0.8 µM; setting: whole 60-bp probe, no competitor; reading: higher = stronger binding; endpoint: fluorescence intensity; shared flanks, not repeated: … GTCTTGATTCGCTTGACGCTGCTG
Target: Centromere-binding protein 1, full length, N-terminal tag (CBF1, Saccharomyces cerevisiae, UniProt P17106, residues 1-351)
Chain of UniProt P17106 (whole entry, looked up): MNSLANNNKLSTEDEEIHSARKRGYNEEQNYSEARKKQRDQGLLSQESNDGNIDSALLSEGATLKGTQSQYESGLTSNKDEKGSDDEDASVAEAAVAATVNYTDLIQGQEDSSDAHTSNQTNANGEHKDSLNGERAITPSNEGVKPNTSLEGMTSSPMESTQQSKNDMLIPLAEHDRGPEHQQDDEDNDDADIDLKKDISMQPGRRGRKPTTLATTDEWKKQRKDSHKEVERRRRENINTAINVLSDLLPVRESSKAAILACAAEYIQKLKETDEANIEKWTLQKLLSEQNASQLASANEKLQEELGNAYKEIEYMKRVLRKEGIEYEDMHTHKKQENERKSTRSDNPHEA
GAATCTGCTACATATCGTGAGGTACGAATATCGTAG: 534 a.u.
GAAACCTATTAATTGCACCTGACTGACGCCTTTTAG: 1370 a.u.
GAAATTTATTTTCATCACCAAAAAAATCTCACCTAG: 471 a.u.
GAATCTTGAAGGCAACATGTGAGATCGGGAAGTTAG: 624 a.u.
CTATTCTTCTATACGTTCGTGATACTGCACTTATTC: 552 a.u.
GAAATACTATTAATCTGTGTTTATGCCACCTGATAG: 618 a.u.
GAAGTATTGATCAATTACGTGAGTCAGCTTTTTTAG: 522 a.u.
GAAGGTTTTAAAAGTCACGTGCTTAAGTCCATTTAG: 23200 a.u.
GAAATTTGTACTTGTTTCATCAGATTCTTACATTAG: 514 a.u.
TGTACGAAGCTATCGCTCGTGGTTATAGTAGTTAGG: 545 a.u.
CTATTTCATCTTAATCACGGATGTATACTGATATTC: 609 a.u.
GAAAACTCGAAGCGTTTCATCAGGTATTTCATATAG: 509 a.u.
CTATTTTTCTTCTGTCAGGTGAAAGTATATGACTTC: 1160 a.u.
CTACATCGGCCGGCCCATGTGAAAAGGAAGTATTTC: 535 a.u.
GAAATCTTACTGTACCCCGTGGAGAATTAACTGTAG: 656 a.u.

Block 5 — method: RNAcompete; molecule type: RNA; medium: in vitro; tested at: 20 nM; setting: 7-mer, probes averaged, single round; baseline: mean of 7-mers; reading: higher = stronger binding; endpoint: 7-mer Z-score
Target: PABPC1L2, full length, GST fusion (mouse, UniProt A0ABA7IW68)
Target sequence (chain): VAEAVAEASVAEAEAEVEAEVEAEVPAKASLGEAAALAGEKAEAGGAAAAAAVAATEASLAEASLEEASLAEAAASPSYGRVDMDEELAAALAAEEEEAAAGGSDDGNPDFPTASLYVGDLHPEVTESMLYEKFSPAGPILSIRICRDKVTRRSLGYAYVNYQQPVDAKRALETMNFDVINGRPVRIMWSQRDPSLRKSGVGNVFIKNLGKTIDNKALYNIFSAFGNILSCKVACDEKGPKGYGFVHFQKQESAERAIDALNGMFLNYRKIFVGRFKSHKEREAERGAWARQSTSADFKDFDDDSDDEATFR
UCCCAGC: -0.195
UCAUUGA: -0.206
GCGUUAC: -0.171
UACCAAA: 0.517
AAUAGGU: 0.215
GCACGUA: -0.0573
AGGAAAC: 0.327
UAUGGUG: 0.128
UAUUCGU: -0.365
CCAGACA: 0.0623
GCGAUGU: -0.217
GGAGAUA: 0.095
GUUUUUG: -0.349
CAGAACG: 0.017
AUGCCGG: -0.0953
UGCCGCU: -0.349
UCAACAA: 0.254
AUCCUAU: -0.316
GGCAGAC: 0.459
AAUCGUC: -0.112
UGGCAAG: 0.00254
CGUUGCU: -0.291
CGAGUAG: -0.101
AAAAACU: 15.2
AAGCCCA: -0.144

For quick reference, copied from above (block 3):
PKAIRKLHFEDPV [E12P]: 2.42
PIAIRKLHFEDEV [K2I]: 1.15
PKAIRKHHFEDEV [L7H]: -0.223
PKAIRKLHFGDEV [E10G]: 2.53
PKAIRGLHFEDEV [K6G]: 0.376
PKNIRKLHFEDEV [A3N]: 0.0592
